Published values collected from several papers.
A part holds a random share of what one study measured.

Study 1 — technique: protein binding microarray; molecule type: double-stranded DNA, one strand shown; sample: in vitro; concentration: not given; reference: not given; direction: higher = stronger binding; endpoint: E-score
Target: Histone acetyltransferase KAT6A, both winged helices, GST fusion (KAT6A, Homo sapiens, UniProt Q92794, residues 1-181)
Setting: 8-mer, flanks averaged, mean of 2 arrays, mostly near background
Residues (chain): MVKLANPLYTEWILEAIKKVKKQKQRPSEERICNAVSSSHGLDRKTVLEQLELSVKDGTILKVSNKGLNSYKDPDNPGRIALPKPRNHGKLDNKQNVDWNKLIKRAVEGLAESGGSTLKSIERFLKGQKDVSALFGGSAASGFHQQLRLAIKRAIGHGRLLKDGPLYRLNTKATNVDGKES
GCCCGACA: 0.131
CTACCATA: -0.124
TATAGTGA: -0.121
AAATATAC: -0.206
AGACGGAG: 0.0308
GAGCGCCC: 0.107
CAGAGTCC: -0.131

Study 2 — technique: RNA Bind-n-Seq; molecule type: RNA; sample: in vitro; concentration: 200 nM; setting: whole 134-nt RNA, ends assumed; with: 150 mM KCl; reference: input library; direction: higher = stronger binding; endpoint: log2 enrichment
Target: Fragile X messenger ribonucleoprotein 1, C-terminal low-complexity region (Fmr1, Mus musculus, UniProt P35922)
Constant ends, left off below: GGGAGUUCUACAGUCCGACGAUC … UGGAAUUCUCGGGUGUCAAGG
AAGUCCUGUGCUACACAUCGUAUGUACCGAAUCGGAAAAGGGAAAAGGGGAAAAGGAAAGUAUUAUGUUACGCCGUUCGGAUCUGCACUU: -0.379
CCUGUGCUACACAUCGUAUGUACCGAAUCGGGGUUUUUUGGUUUUUUGGGGUUUUUUGGGAAAGUAUUAUGUUACGCCGUUCGGAUCUGC: -0.349
AAGUCCUGUGCUACACAUCGUAUGUACCGAAUCGGGUUUUUGGUUUUUGGUUUUUGGAAAGUAUUAUGUUACGCCGUUCGGAUCUGCACU: -0.792
ACCAUGCAGGUGGGCAUCUUUGGGAAGUGGGGCAAGGGGGGGAUAGGGAGGGGGGUAACACUUUGGGAACAGGUGGUCCCAGGUCUUUUC: 0.662
CACAGAUAACACGCACCCACACAGACACAGAGGGAAGGGGUUGGGAUGGGGACAGGGUGCACAGCAGGGCGGGGUAGGACCCCAGCCCCU: 1.19

Study 3 — technique: protein-binding microarray; molecule type: double-stranded DNA, one strand shown; sample: in vitro; concentration: 250 nM; setting: 60-bp whole probe; with: salmon DNA 0.4 mg/ml; reference: random background probes; direction: higher = stronger binding; endpoint: log fluorescence
Target: Interferon regulatory factor 5, full length, phosphomimetic (IRF5, Homo sapiens, UniProt Q13568-2, residues 1-514, K96S/S451D/S453D/S456D/S462D)
GCCTAGCACTCATCTTTGCTCATTTTTACTGTGCTAGTCTTGATTCGCTTGACGCTGCTG: 1.23 z-score
GCCTAGCACATAGGACTGGGGACTGGGTTAGTGCTAGTCTTGATTCGCTTGACGCTGCTG: -0.422 z-score
GCCTAGCACTCAAATATATATATTATACTGTGCTAGGTCTTGATTCGCTTGACGCTGCTG: 0.606 z-score
GCCTAGCACTTAGATATCGGGTTTTGATTAGTGCTAGTCTTGATTCGCTTGACGCTGCTG: 2.42 z-score

Mixed results
PhoQ, residues 284 288 289 292 302 303 NSMLDC
fold induction (PhoP, residues 12 14 15 18 19 SEGLL (Escherichia coli, UniProt P23836); Sort-seq, measured: YFP reporter; E. coli; PhoQ-PhoP variant library, with: 10 µM Mg2+; reference: high Mg2+ state, higher = stronger signaling): 18.1

Repeated from above (study 2):
CCUGUGCUACACAUCGUAUGUACCGAAUCGGGGUUUUUUGGUUUUUUGGGGUUUUUUGGGAAAGUAUUAUGUUACGCCGUUCGGAUCUGC: -0.349
CACAGAUAACACGCACCCACACAGACACAGAGGGAAGGGGUUGGGAUGGGGACAGGGUGCACAGCAGGGCGGGGUAGGACCCCAGCCCCU: 1.19
